Results from different studies.
Compare with care: the assays were run in different laboratories. Values joined by “and” are separate records of one study, mostly repeats; a detail may differ. ± gives the spread as reported.

| SMILES | assay | system | conditions | plasma concentration |
| --- | --- | --- | --- | --- |
| Cc1coc([C@H]2C[C@H]3[C@@H](CF)SC(N)=N[C@@]3(c3ccc(F)cc3F)CO2)n1 |  | male 129/SVE mouse, plasma | subcutaneous, 80 mg/kg, 1 h | 14.9 µM |
| CCCCCN1C[C@H](O)[C@@H](O)[C@H](O)[C@@H]1CO | LC-MS/MS | mouse Hexb-/- female, plasma | 300 mg/kg/day, arithmetic mean | 3840 ng/mL |
| CC(C)c1cc(C(=O)NCCN)c2cnn(C(C)C)c2n1 |  | mouse BALB/c female, plasma | intraperitoneal, 50 mg/kg, 1 h | 2710 ng/mL and 2600 ng/mL and 3050 ng/mL and 2830 ng/mL |
| CC(=O)NCc1cc2c(cc1F)C(=O)N(C1CCC(=O)NC1=O)C2 (stereo not drawn) |  | CD-1 mouse, male | oral, 10 mg/kg parent drug, 4 h | 3.1 ± 1.2 ng/mL |
| Cc1c(C(=O)O)ccc2c3n(nc12)[C@@H]1[C@H](C3)N(CC2CC2)[C@@]2(C(=O)Nc3cc(Cl)ccc32)[C@H]1c1cccc(Cl)c1F |  | female BALB/c nude mouse, SJSA-1 xenograft, plasma | oral, 1 mg/kg twice daily, 9 h | 0.964 µM |
| CNC(=O)c1cc2c(Oc3ccc(NC(=O)C4(C(=O)Nc5ccc(F)cc5)CC4)cc3)ccnc2cc1OC | LC-MS/MS | mouse, SNU-5 xenograft, plasma | oral, 3 mg/kg once daily for 14 days, 4 h | 1.88 µM |
| Cc1cc([C@H]2C[C@H]3[C@@H](CF)SC(N)=N[C@@]3(c3ccc(F)cc3F)CO2)on1 |  | male 129/SVE wild-type mouse, plasma | subcutaneous, 30 mg/kg, 9 h | 0.015 µM |
| CCn1c(=O)c(-c2cc(NC(=O)Nc3ccccc3)c(F)cc2Br)cc2cnc(NC)cc21 |  | mouse male, plasma | oral, 15 mg/kg, 1 h | 568 ng/mL |
| O=C1CCC(N2Cc3cc(CO)c(F)cc3C2=O)C(=O)N1 (stereo not drawn) |  | CD-1 mouse, male | oral, 10 mg/kg parent drug, 0.33 h | 18.2 ± 7.2 ng/mL |
| Cn1cc([C@H]2C[C@H]3CSC(N)=N[C@@]3(c3ccc(F)cc3F)CO2)cn1 |  | male 129/SVE mouse, plasma | subcutaneous, 10 mg/kg, 13 h | 0.139 µM |
| CSc1cc(C)nc(SC)c1NC(=O)CN1CCN(CCSc2nc3ccccc3[nH]2)CC1.Cl |  | mouse Crl:CD1 (ICR) female, plasma | intranasal, 10 µL of 3.24 mg/mL in 0.01 N HCl daily, 120 min, 7 days dosing | 0.2 ng/mL and 0.3 ng/mL |
| C[C@H]1O[C@@H](O[C@H]2CC[C@@]3(C)[C@@H](CC[C@]4(C)[C@@H]3C=C[C@]35OC[C@@]6(CCC(C)(C)C[C@H]63)[C@@H](O)C[C@]54C)[C@]2(C)CO)[C@H](O)[C@@H](O[C@@H]2O[C@H](CO)[C@@H](O)[C@H](O)[C@H]2O)[C@H]1O | UHPLC-MS/MS | mouse, plasma | oral, 50 mg/kg, 1 h, pooled samples | 18 ng/mL and 14.1 ng/mL |
| CC(C)(C)c1cc(NC(=O)Nc2ccc(Oc3ccnc4[nH]c(=O)cnc34)cc2F)n(-c2ccccc2)n1 |  | nude mouse, female, plasma | oral, 20 mg/kg, 1 h after last dose | 50.8 µM and 30.1 µM and 113 µM and 27.1 µM and 62.8 µM and 35.3 µM |
| Cc1cc([C@H]2C[C@H]3[C@@H](C)SC(N)=N[C@@]3(c3ccc(F)cc3F)CO2)on1 |  | male 129/SVE mouse, plasma | subcutaneous, 50 mg/kg, 18 h | 0.03 µM |
| C[C@@H](O)[C@H]1C(=O)N2C(C(=O)O)=C(S[C@@H]3CN[C@H](C(=O)N(C)C)C3)[C@H](C)[C@H]12 |  | BALB/c mouse, male, plasma | intraperitoneal, 100 mg/kg, 10 h | 1960 ng/mL |
| CC(C)n1ncc2c(C(=O)NCC3(C)CNC3)cc(C3CC3)nc21 |  | mouse BALB/c female, plasma | intraperitoneal, 50 mg/kg, 8 h | 279 ng/mL and 315 ng/mL and 337 ng/mL and 255 ng/mL |
| CSc1cc(Oc2ccnc3[nH]c(=O)cnc23)ccc1NC(=O)Nc1cc(C(C)(C)C)nn1-c1ccccc1 |  | NSG mouse, female, tumor | oral, 20 mg/kg, 1 h after last dose | 8 µM and 8.88 µM and 16.6 µM and 3.93 µM and 13.1 µM |
| CCN1CCN(Cc2ccc(NC(=O)c3ccc(C)c(NC(=O)c4cncc(-c5cccs5)c4)c3)cc2C(F)(F)F)CC1 | LC-MS/MS | C57BL/6 mouse, plasma | intraperitoneal, 20 mg/kg single dose, 0.5 h | 690 ng/mL and 755 ng/mL and 697 ng/mL |
| O=[N+]([O-])c1ccc(-c2ccc(O)cc2)c2cccnc12 |  | ICR mouse, male | oral, 5 mg/kg, 0.5 h | 22 ng/mL |
| c1csc(CNc2cc[nH]n2)c1 |  | mouse, CD-1, male, plasma | oral, 20 mg/kg as HCl salt, 0.5 h | 24.4 µM |
| c1ccc(-c2nc(N3CCC(c4ccccn4)C3)c3ccccc3n2)nc1 (stereo not drawn) |  | mouse, Balb/c female, plasma | oral, 12.5 mg/kg, 1 h, mean, with: aminobenzotriazole pretreatment | 2850 ng/mL |

Repeated from above:
| SMILES | assay | system | conditions | plasma concentration |
| --- | --- | --- | --- | --- |
| CC(C)c1cc(C(=O)NCCN)c2cnn(C(C)C)c2n1 |  | mouse BALB/c female, plasma | intraperitoneal, 50 mg/kg, 1 h | 2710 ng/mL and 2600 ng/mL and 3050 ng/mL and 2830 ng/mL |
| CCCCCN1C[C@H](O)[C@@H](O)[C@H](O)[C@@H]1CO | LC-MS/MS | mouse Hexb-/- female, plasma | 300 mg/kg/day, arithmetic mean | 3840 ng/mL |
